Published values gathered from unrelated publications.
Protocols differ between the studies behind these lines.
Target: Tyrosine-protein kinase FRK (FRK, Homo sapiens, UniProt P42685)

| Structure (SMILES) | assay | setting | how to read | quantity | result |
| --- | --- | --- | --- | --- | --- |
| CNC1C[S+]2CC[S+]3CC[S+](C1)[Ru-4]321([N]=C=S)[n]2c3ccc(OC)cc3c3c4c(c5cc(F)c[n+]1c5c32)C(=O)NC4=O (stereo not shown) | KinomeScan | 0.1 µM | reference: untreated | remaining binding | 100% |
| COc1ccc(NC(=O)Nc2ccc3c(c2)C(=O)N(C(C)CO)CC(C)C(CN(C)Cc2ccc4c(c2)OCO4)O3)cc1 (stereo not shown) | kinase activity, KinaseProfiler | 0.03 µM, species human | reference: control | remaining activity | 88% |
| C=CC(=O)N1CCCC(n2c(=O)c3ncccc3n(Cc3ccc(Oc4ccccc4)cc3)c2=O)C1 (stereo not shown) | cell-free assay, competition with immobilised ligand | 1 µM | – | remaining binding | 91% |
| CCN1CCN(Cc2ccc(C(=O)Nc3ccc(C)c(NCc4cnc5[nH]ccc5c4OC)c3)cc2C(F)(F)F)CC1 | binding, competition with immobilised ligand | 1 µM | – | remaining binding | 2.2% |
| C=CC(=O)N1Cc2nc(-c3cc(-c4cc(Cl)cnc4Cl)c(F)cc3F)n(-c3ccncn3)c2C1 | cell-free assay, inhibitor | 1 µM | – | inhibition | -0.4% |
| Cc1cccc(O[C@H]2CCC[C@@H](C(C)CNCc3ccncc3)C2)c1 (relative stereo) | cell-free assay, inhibitor | 1 µM | – | inhibition | 1% |
| CCN1CCN(Cc2ccc(NC(=O)c3ccc(C)c(NC(=O)c4cncc(-c5cccs5)c4)c3)cc2C(F)(F)F)CC1 | binding, competition with immobilised ligand | 1 µM | – | remaining binding | 1.3% |
| NC(=O)C[C@H]1CCc2sc3ncnc(O[C@H]4CC[C@H](N5CCOCC5)CC4)c3c21 | enzyme activity, inhibitor, radiometric | 10 µM | – | inhibition | 12% |
| C=CC(=O)N1CCc2ccc(-n3c(=O)ccc4cnc5ccc(-c6cnn(C)c6)cc5c43)cc21 | KINOMEscan | 1 µM | reference: DMSO control | remaining binding | 100% |
| CCn1cc(C(=O)O)c(=O)c2c(N)c(F)c(NC3CCCCC3)cc21 | kinase activity | 0.1 µM, with: ATP at Km | – | inhibition | 2% |
| CN1CC[C@@H](COc2cnc(C#N)cc2-c2ccn3nc(NC(=O)C4CC4)cc3c2)C1 | enzyme activity, inhibitor | 1 µM | – | inhibition | 2% |
| C=CC(=O)Nc1cccc(-c2cnc3[nH]cc(C(=O)NC(C)(C)C)c3n2)c1 | enzyme activity, inhibitor | 0.1 µM | – | inhibition | 10% |
| COc1c(OCCCN2CCOCC2)ccc2c1N=C(NC(=O)c1cnc(N)nc1)N1CCN=C21 | kinase activity, inhibitor | 1 µM | reference: untreated control | remaining activity | 106% |
| Nc1ncc(-c2cc(-c3cnn(CC(F)(F)F)c3)ncc2F)nc1C(=O)NC1CNCC(F)C1 (stereo not shown) | enzyme activity | 1 µM | reference: DMSO control | remaining activity | 97% |
| COc1cc(Nc2nccc(-c3cnn4nc(OC)ccc34)n2)cc(C(F)(F)F)c1 | binding, competition with immobilised ligand | 1 µM | – | remaining binding | 95% |
| O=C(Cc1ccc(OCc2ccccc2)cc1)NC1(C(=O)O)CCN(C(=O)c2ccc(-c3cccc(Cl)c3)cc2)CC1 | enzyme activity, inhibitor | 10 µM | – | activity vs control | 97% |
